Experimental data from different studies.
Lines come from different studies, so protocols differ. ± gives the spread as reported.

system	conditions	AUC(0-t)	SMILES
Sprague-Dawley rat, male, plasma	oral, 20 mg/kg	11000 ng·h/mL	O=C(NS(=O)(=O)c1cccs1)c1cc2ccccc2n1Cc1ccc(Br)c2ccccc12
Sprague-Dawley rat, male, lean, plasma	oral, 100 mg/kg	43.2 ± 12.4 ng·h/mL	COc1ccc([C@@H]2CC(=O)c3c(O)cc(O[C@@H]4O[C@H](CO)[C@@H](O)[C@H](O)[C@H]4O[C@@H]4O[C@@H](C)[C@H](O)[C@@H](O)[C@H]4O)cc3O2)cc1O
Sprague-Dawley rat, both sexes, plasma	oral gavage, 10 mg/kg	17100 ± 1090 ng·h/mL	OC1(C(F)(F)F)CCN(c2nc(Nc3ccnc(C(F)(F)F)c3)nc(-c3cccc(C(F)(F)F)n3)n2)C1 (centres unmarked)
Sprague-Dawley rat, both sexes, whole blood	intravenous, 5 mg/kg, day 7	4250 ± 1150 ng·h/mL	CCCC[C@H](OC(C)=O)c1ccccc1C(=O)O
male Sprague-Dawley rats, plasma	intravenous, 1 mg/kg, 24 h, citrate ester	2.34 µM·h	COCCN(C)CC(=O)NC(Cc1ccc(-c2ccccc2)cc1)B(O)O (centres unmarked)
Sprague-Dawley rats, both sexes, plasma	intravenous infusion, 6 mg/kg, single dose	2090 ng·h/mL	C=C(NC(=O)c1csc(-c2nc3c(cc2O)-c2nc(cs2)C(=O)NC(C(C)O)C(=O)NC(=C(C)OC)c2nc(cs2)C(=O)NC2c4nc(cs4)C(=O)NC(COC(=O)c4c5c6c(cccc6n4O)COC(=O)C(OC4CC(C)(O)C(N(C)C)C(C)O4)C2OC5)c2nc-3cs2)n1)C(N)=O (centres unmarked)
Sprague-Dawley rat, plasma	intravenous, 1.0 mg/kg	1140 ± 135 ng·h/mL	O=C(O)c1c(O)cc(O[C@@H]2O[C@H](CO)[C@@H](O)[C@H](O)[C@H]2O)cc1/C=C/c1ccccc1
rat, Sprague-Dawley	iv, 2.5 mg/kg	694 ng·h/mL	CNC(=O)C1CCCN(C(=O)C2CC3CCC2N3C(=O)[C@@H]2C[C@@H](O)CN2C(=O)NCc2cccc(Cl)c2F)C1 (mixture of isomers)

For quick reference, copied from above:
system	conditions	AUC(0-t)	SMILES
Sprague-Dawley rat, male, lean, plasma	oral, 100 mg/kg	43.2 ± 12.4 ng·h/mL	COc1ccc([C@@H]2CC(=O)c3c(O)cc(O[C@@H]4O[C@H](CO)[C@@H](O)[C@H](O)[C@H]4O[C@@H]4O[C@@H](C)[C@H](O)[C@@H](O)[C@H]4O)cc3O2)cc1O
